Results pooled from the literature.
Protocols differ between the studies behind these lines. Values joined by “and” are separate records of one study, mostly repeats; a detail may differ.
DRD3: D(3) dopamine receptor (DRD3, Homo sapiens, UniProt P35462)
Chain of UniProt P35462 (whole entry, looked up): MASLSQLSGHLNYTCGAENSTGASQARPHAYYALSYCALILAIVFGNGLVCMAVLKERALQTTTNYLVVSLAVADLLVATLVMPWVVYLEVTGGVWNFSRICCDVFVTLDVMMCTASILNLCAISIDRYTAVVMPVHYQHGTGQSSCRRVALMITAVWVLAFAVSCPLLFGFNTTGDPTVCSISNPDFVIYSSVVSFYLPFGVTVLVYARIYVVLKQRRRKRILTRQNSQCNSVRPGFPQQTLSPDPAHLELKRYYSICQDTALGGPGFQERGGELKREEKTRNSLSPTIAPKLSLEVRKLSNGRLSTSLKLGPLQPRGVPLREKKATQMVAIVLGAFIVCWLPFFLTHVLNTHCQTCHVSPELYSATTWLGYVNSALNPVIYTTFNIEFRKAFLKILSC
CTSL: Procathepsin L (CTSL, Homo sapiens, UniProt P07711)
Chain of UniProt P07711 (whole entry, looked up): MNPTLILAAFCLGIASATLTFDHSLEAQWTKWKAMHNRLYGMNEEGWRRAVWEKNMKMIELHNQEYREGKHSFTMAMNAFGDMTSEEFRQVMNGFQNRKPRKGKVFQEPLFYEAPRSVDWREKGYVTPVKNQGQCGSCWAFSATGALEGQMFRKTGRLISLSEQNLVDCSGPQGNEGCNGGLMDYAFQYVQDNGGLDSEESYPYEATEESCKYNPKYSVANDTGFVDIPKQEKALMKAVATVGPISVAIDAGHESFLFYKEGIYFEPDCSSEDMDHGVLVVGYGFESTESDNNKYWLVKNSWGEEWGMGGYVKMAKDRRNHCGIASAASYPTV
Chain of UniProt P00519 (whole entry, unmodified, looked up): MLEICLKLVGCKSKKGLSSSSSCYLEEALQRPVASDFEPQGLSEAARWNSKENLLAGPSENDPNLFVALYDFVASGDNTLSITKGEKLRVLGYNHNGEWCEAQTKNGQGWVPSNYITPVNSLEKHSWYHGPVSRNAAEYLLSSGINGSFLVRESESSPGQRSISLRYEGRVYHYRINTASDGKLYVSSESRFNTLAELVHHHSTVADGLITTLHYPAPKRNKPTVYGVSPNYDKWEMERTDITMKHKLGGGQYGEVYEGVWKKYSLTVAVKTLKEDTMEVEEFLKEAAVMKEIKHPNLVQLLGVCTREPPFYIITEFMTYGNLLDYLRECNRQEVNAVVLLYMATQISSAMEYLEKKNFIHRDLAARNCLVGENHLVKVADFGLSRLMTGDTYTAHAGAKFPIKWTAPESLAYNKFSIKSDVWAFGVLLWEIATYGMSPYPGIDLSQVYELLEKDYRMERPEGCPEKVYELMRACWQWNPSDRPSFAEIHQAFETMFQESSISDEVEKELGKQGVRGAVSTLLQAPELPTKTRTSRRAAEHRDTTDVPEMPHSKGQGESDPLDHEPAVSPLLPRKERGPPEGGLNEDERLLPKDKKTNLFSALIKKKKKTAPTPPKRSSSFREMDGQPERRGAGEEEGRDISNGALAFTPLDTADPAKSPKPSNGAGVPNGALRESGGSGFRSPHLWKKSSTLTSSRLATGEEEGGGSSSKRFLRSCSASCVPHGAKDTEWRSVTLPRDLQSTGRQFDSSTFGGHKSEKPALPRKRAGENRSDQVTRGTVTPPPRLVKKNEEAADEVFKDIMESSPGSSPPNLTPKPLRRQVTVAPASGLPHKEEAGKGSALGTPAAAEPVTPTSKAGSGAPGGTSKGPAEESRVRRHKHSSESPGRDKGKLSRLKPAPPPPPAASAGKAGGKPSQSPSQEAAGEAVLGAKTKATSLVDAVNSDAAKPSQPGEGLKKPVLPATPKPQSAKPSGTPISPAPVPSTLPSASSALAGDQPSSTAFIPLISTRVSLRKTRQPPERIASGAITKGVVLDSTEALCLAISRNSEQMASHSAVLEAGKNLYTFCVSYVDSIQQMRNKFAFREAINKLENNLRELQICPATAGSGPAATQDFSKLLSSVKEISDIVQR
Chain of UniProt Q969F8 (whole entry, unmodified, looked up): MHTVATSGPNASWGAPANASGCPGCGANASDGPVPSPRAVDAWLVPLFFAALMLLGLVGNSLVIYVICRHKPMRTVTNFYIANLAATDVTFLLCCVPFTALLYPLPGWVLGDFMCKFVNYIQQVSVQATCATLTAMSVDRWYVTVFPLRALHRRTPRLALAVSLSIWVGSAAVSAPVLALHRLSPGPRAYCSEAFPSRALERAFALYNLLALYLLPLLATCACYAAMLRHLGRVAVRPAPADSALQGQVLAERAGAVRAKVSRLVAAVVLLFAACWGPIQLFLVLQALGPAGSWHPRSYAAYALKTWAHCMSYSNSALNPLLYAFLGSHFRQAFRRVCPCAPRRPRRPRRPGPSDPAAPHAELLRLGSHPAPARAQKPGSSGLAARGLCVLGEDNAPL
Chain of UniProt O15075 (whole entry, looked up): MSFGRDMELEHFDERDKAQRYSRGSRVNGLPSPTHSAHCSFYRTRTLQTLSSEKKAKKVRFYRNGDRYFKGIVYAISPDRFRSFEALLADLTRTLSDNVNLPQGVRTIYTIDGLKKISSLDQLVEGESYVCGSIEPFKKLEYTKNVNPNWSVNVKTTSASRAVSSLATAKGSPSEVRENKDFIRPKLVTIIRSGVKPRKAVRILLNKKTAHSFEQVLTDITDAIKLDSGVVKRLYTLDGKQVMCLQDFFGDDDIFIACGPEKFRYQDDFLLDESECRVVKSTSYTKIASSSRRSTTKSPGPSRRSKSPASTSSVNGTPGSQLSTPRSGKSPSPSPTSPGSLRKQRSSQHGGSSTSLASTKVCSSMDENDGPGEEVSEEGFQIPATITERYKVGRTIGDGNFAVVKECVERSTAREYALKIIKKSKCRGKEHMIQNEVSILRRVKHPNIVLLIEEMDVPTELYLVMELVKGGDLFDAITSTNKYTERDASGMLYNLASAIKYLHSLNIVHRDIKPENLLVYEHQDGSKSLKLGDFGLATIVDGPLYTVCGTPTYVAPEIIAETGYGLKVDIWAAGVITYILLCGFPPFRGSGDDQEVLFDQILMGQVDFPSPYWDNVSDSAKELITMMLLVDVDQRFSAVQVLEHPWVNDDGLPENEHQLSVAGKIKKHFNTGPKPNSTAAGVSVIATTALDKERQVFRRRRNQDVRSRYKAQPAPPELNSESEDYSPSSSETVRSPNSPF
Chain of UniProt Q00535 (whole entry, looked up): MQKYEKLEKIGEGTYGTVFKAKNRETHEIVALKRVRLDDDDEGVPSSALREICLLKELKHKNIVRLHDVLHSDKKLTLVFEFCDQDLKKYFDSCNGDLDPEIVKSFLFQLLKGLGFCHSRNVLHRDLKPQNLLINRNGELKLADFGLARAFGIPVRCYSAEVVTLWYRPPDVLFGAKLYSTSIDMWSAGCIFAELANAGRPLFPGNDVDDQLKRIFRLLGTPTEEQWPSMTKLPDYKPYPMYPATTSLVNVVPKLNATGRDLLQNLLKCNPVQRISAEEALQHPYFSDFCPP
Chain of UniProt P49841 (whole entry, looked up): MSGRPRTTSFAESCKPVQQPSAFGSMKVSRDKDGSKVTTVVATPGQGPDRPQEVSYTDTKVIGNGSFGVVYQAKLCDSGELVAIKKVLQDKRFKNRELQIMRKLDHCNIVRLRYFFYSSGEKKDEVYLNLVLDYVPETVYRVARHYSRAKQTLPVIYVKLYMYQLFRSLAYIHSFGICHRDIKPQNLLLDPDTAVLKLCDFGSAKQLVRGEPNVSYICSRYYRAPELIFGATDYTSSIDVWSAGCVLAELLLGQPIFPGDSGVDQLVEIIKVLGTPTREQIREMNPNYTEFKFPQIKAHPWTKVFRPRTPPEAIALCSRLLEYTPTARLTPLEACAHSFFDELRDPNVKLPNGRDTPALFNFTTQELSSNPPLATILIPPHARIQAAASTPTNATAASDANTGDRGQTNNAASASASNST
Chain of UniProt Q9BYT3 (whole entry, looked up): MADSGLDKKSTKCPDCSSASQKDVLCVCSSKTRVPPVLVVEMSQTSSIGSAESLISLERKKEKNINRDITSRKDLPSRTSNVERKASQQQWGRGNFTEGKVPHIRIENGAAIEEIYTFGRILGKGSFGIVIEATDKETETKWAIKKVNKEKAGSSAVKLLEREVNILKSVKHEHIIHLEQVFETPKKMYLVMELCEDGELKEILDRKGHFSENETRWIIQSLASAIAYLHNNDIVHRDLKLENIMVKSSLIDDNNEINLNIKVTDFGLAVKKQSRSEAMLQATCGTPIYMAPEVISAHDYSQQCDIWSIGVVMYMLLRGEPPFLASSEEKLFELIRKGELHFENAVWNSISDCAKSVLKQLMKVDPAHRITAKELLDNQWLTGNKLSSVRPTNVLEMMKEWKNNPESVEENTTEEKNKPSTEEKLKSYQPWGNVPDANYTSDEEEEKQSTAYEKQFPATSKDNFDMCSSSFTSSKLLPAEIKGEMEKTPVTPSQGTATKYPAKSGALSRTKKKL
Chain of UniProt Q70EK9 (whole entry, looked up): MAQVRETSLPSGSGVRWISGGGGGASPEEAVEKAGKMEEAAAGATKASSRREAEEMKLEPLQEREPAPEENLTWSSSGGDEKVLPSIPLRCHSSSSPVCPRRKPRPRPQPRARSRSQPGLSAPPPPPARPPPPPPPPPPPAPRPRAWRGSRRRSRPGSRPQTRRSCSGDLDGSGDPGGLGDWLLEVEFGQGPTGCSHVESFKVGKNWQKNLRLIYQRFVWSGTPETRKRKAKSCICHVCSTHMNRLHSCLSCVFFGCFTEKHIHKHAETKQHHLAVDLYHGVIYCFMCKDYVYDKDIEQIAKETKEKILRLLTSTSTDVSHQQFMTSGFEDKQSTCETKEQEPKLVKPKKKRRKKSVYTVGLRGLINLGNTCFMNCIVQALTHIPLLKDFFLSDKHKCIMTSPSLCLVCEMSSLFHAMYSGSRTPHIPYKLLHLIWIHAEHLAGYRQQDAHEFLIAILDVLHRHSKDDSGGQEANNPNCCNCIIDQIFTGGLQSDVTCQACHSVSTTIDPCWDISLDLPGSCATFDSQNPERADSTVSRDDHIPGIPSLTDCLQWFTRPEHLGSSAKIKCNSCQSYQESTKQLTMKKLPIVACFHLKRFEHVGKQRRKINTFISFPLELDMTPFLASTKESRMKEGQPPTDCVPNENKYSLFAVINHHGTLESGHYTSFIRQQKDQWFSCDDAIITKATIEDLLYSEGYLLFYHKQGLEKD

C1=C/COCc2cc(ccc2OCCN2CCCC2)Nc2nccc(n2)-c2cccc(c2)COC/1 — remaining binding (Cyclin-dependent kinase-like 2 (CDKL2, Homo sapiens, UniProt Q92772); binding; 0.1 µM): 0%
Nc1ccn([C@@H]2O[C@H](CO)[C@@H](O)C2(F)F)c(=O)n1 — viability (MDA-MB-231; cell growth or viability, MTT; 0.625 µg/mL, 48 h): 73.9%
COc1cc(C(F)(F)F)c(Cl)cc1NS(=O)(=O)c1c(C)[nH]c(C)c1C(=O)N1CCC(F)(F)C1 — Emax (DRD3; β-arrestin recruitment, agonist; 90 min): 99%
C=CC(=O)N1CCC(COCC(=O)N2CCN(c3nc(-c4cnc(N)nc4C(F)F)nc(N4CCOC[C@@H]4C)n3)CC2)CC1 — remaining binding (Mitogen-activated protein kinase kinase kinase 1 (MAP3K1, Homo sapiens, UniProt Q13233); binding, competition with immobilised ligand; 1 µM): 100%
CC[C@H](C)[C@H](NC(=O)[C@H](CCC(N)=O)NC(=O)[C@@H](NC(=O)[C@H](CCSC)NC(=O)[C@H](CCCCN)NC(=O)[C@H](CO)NC(=O)[C@@H](NC(=O)[C@H](CCSC)NC(=O)[C@H](CC(C)C)NC(=O)[C@H](CC(N)=O)NC(=O)[C@@H](NC(=O)[C@@H](NC(=O)[C@H](CO)NC(=O)[C@H](CC(C)C)NC(=O)[C@H](C)NC(=O)[C@H](CCCNC(=N)N)NC(=O)[C@H](CCC(=O)O)NC(=O)[C@H](Cc1ccc(O)cc1)NC(=O)[C@H](Cc1ccccc1)NC(=O)[C@H](C)NC(=O)[C@H](CC(N)=O)NC(=O)[C@@H](N)CCCCN)[C@@H](C)CC)[C@@H](C)CC)[C@@H](C)O)C(C)C)C(=O)N[C@@H](CC(N)=O)C(=O)N[C@H](C(=O)O)C(C)C — remaining activity (Cyclin-dependent kinase 5, with p25 (CDK5, Homo sapiens, UniProt Q00535); enzyme activity, inhibitor, radiometric; 1 µM, 20 min): 102%
COc1cccc(-c2n[nH]c(SCc3ccccn3)n2)c1OC — concentration (female Sprague-Dawley rat, plasma; oral, 100 mg/kg, 8 h, single dose): 4990 ng/mL
FC(F)(F)Oc1cccc(-c2cnc3ccc(-c4ccncc4)nn23)c1 — remaining binding (Mast/stem cell growth factor receptor Kit (KIT, Homo sapiens, UniProt P10721); cell-free assay, competition with immobilised ligand; 5 µM): 20%
CC(=O)c1cc(-c2ccccc2)c2ccccn12 — ΔTm (Bromodomain-containing protein 9 (BRD9, Homo sapiens, UniProt Q9H8M2); thermal stability, DSF; 200 µM): 5.5 °C
CC[C@H](C)[C@H](NC(=O)[C@H](CCC(N)=O)NC(=O)[C@H](CCCNC(=N)N)NC(=O)[C@H](CO)NC(=O)[C@H](Cc1c[nH]cn1)NC(=O)[C@@H]1CCCN1C(=O)[C@H](C)NC(=O)[C@H](CO)NC(=O)[C@H](CC(C)C)NC(=O)CNC(=O)[C@@H]1CCCN1C(=O)[C@H](CCC(N)=O)NC(=O)[C@H](CCC(N)=O)NC(=O)[C@H](CCCNC(=N)N)NC(=O)[C@H](CO)NC(=O)CNC(=O)[C@H](CO)NC(=O)[C@H](CO)NC(=O)[C@H](CCC(=O)O)NC(=O)[C@@H]1CCCN1C(=O)[C@@H]1CCCN1C(=O)[C@@H]1CCCN1C(=O)[C@H](CO)NC(=O)[C@H](CC(C)C)NC(=O)[C@H](CO)NC(=O)[C@@H](NC(=O)CN)[C@@H](C)O)C(=O)N1CCC[C@H]1C(=O)N[C@@H](C)C(=O)N1CCC[C@H]1C(=O)N[C@@H](CCC(N)=O)C(=O)NCC(=O)N[C@@H](C)C(=O)N[C@H](C(=O)N[C@@H](CC(C)C)C(=O)N[C@H](C(=O)N[C@@H](CCC(N)=O)C(=O)N[C@@H](CCCNC(=N)N)C(=O)N[C@@H](CCC(=O)O)C(=O)N[C@@H](CCCCN)C(=O)N[C@@H](CC(=O)O)C(=O)N[C@@H](CC(C)C)C(=O)N1CCC[C@H]1C(=O)N[C@@H](CC(N)=O)C(=O)N[C@@H](Cc1ccc(O)cc1)C(=O)N[C@@H](CC(N)=O)C(=O)N[C@@H](Cc1c[nH]c2ccccc12)C(=O)N[C@@H](CC(N)=O)C(=O)N[C@@H](CO)C(=O)N[C@@H](Cc1ccccc1)C(=O)NCC(=O)N[C@@H](CC(C)C)C(=O)N[C@@H](CCCNC(=N)N)C(=O)N[C@@H](Cc1ccccc1)C(N)=O)C(C)C)C(C)C — Emax (KiSS-1 receptor (KISS1R, Homo sapiens, UniProt Q969F8, T99A); inositol phosphate, agonist; HEK293): 53.9%
CC1OC(OC2C(CO)OC(OCC3OC(OC(=O)C45CCC(C)(C)CC4C4=CCC6C7(C)CCC(OC8OCC(O)C(O)C8O)C(C)(CO)C7CCC6(C)C4(C)CC5)C(O)C(O)C3O)C(O)C2O)C(O)C(O)C1O (stereo not shown) — remaining activity (CTSL; enzyme activity, inhibitor; 100 µM): 304%
Cc1[nH]c(C)c(S(=O)(=O)Nc2ccc(C(F)(F)F)c(Cl)c2)c1C(=O)N(C)C — Emax (DRD3; β-arrestin recruitment, agonist; 90 min): 103%
C=CC(=O)Nc1cccc(-c2noc([C@@]3(C)CCCc4sc(N)c(C#N)c43)n2)c1 — KI (inactivation) (GTPase KRas (KRAS, Homo sapiens, UniProt P01116, G12C); enzyme activity, inhibitor): 9.75 µM and 7.29 µM and 8.86 µM
COc1cc(C2Oc3cc(C4Oc5cc(O)cc(O)c5C(=O)C4O)ccc3OC2CO)ccc1O (stereo not shown) — remaining activity (CTSL; enzyme activity, inhibitor; 100 µM): 62.6%
O=c1nc(N2CCN(CC3CCCCC3)CC2)sc2c([N+](=O)[O-])cc(C(F)(F)F)cc12 — concentration (CD-1 mouse, lung; oral, 100 mg/kg, 4.98 min): 129 ng/mL
Oc1cc(O)c2c(c1)OC(c1cc(O)c(O)c(O)c1)C(O)C2 (stereo not shown) — remaining activity (CTSL; enzyme activity, inhibitor; 100 µM): 107%
Nc1ncnc2occ(-c3ccc(NC(=O)Nc4cc(C(F)(F)F)ccc4F)cc3)c12 — remaining signal (Tyrosine-protein kinase ABL1, phosphorylated (ABL1, Homo sapiens, UniProt P00519, E255K); cell-free assay, inhibitor; 20 µM): 0.45%
COc1cc2c(=O)c(-c3ccc(O)cc3)coc2cc1O — remaining activity (CTSL; enzyme activity, inhibitor; 100 µM): 66.8%
CNc1ncc2c(/C=C/C(=O)N3CCC(OC)CC3)nn(Cc3cccc(C(F)(F)F)c3)c2n1 — remaining activity (Serine/threonine-protein kinase 33 (STK33, Homo sapiens, UniProt Q9BYT3); enzyme activity, inhibitor, radiometric; 1 µM): 93%
CC1OC(OC2C(OC3CCC4(C)C(CCC5(C)C4CC=C4C6CC(C)(C)CCC6(C(=O)OC6OC(COC7OC(CO)C(O)C(O)C7O)C(O)C(O)C6O)CCC45C)C3(C)CO)OCC(O)C2O)C(O)C(OC2OC(CO)C(O)C(O)C2O)C1O (stereo not shown) — remaining activity (CTSL; enzyme activity, inhibitor; 100 µM): 127%
O=C1CC[C@H](N2Cc3cc(N4CCN(CC5CCN(c6ccc([C@@H]7c8ccc(O)cc8CC[C@@H]7c7ccccc7)cc6)CC5)CC4)ccc3C2=O)C(=O)N1 — half-life (female Sprague-Dawley rat, plasma; intravenous, 5 mg/kg, fed): 5.36 h
COc1cccc(OC)c1-c1cc(C(=O)NC2(C(=O)O)C3CC4CC(C3)CC2C4)nn1-c1ccc(C(=O)N(C)CCCN(C)CCCN(C)C(=O)CN2CCN(CC(=O)[O-])CCN(CC(=O)[O-])CCN(CC(=O)[O-])CC2)cc1C(C)C.[177Lu+3] (stereo not shown) — tracer uptake (HT-29 tumour model; host not given, pancreas; intravenous, 4 h, tumour-bearing): 0.9 %ID/g
CCCCC(=O)Nc1ccc(-c2ccc3ncn(CCC)c(=O)c3c2)cn1 — remaining binding (LIM domain kinase 2 (LIMK2, Homo sapiens, UniProt P53671); binding, competition with immobilised ligand; 0.5 µM): 100%
CCCN(O)N=Nc1ccc(S(=O)(=O)Nc2onc(C)c2C)cc1 — inhibition (ABTS scavenging; 240 µg/mL): 52.9%
Cc1cc([C@@H](C)Nc2ccccc2C(=O)O)c2nc(N3CCC(F)(F)CC3)c(C#N)c(=O)n2c1 — remaining binding (Serine/threonine-protein kinase DCLK1 (DCLK1, Homo sapiens, UniProt O15075); binding, competition with immobilised ligand; 10 µM): 100%
COc1cc(-c2cncc3c2CN(C)Cc2cc(N4CCNCC4)ccc2-3)cc(OC)c1OC — remaining activity (Glycogen synthase kinase-3 beta (GSK3B, Homo sapiens, UniProt P49841); enzyme activity, inhibitor; 1 µM): 101%
O=c1[nH]cnc2c1ncn2[C@@H]1O[C@H](CO)[C@@H](O)[C@H]1O — inhibition (Ubiquitin carboxyl-terminal hydrolase 51 (USP51, Homo sapiens, UniProt Q70EK9); enzyme activity, inhibitor; 5 µM): 73%
CCN(O)N=Nc1ccc(S(=O)(=O)Nc2cc(C)on2)cc1 — inhibition (ABTS scavenging; 300 µg/mL): 38.4%
Cc1cc(O)c2c(c1)Cc1cc(O)cc(O)c1C2=O — remaining activity (CTSL; enzyme activity, inhibitor; 100 µM): 23.3%

For quick reference, copied from above:
C1=C/COCc2cc(ccc2OCCN2CCCC2)Nc2nccc(n2)-c2cccc(c2)COC/1 — remaining binding (Cyclin-dependent kinase-like 2 (CDKL2, Homo sapiens, UniProt Q92772); binding; 0.1 µM): 0%
CCCCC(=O)Nc1ccc(-c2ccc3ncn(CCC)c(=O)c3c2)cn1 — remaining binding (LIM domain kinase 2 (LIMK2, Homo sapiens, UniProt P53671); binding, competition with immobilised ligand; 0.5 µM): 100%
COc1cc(C(F)(F)F)c(Cl)cc1NS(=O)(=O)c1c(C)[nH]c(C)c1C(=O)N1CCC(F)(F)C1 — Emax (DRD3; β-arrestin recruitment, agonist; 90 min): 99%
CC(=O)c1cc(-c2ccccc2)c2ccccn12 — ΔTm (Bromodomain-containing protein 9 (BRD9, Homo sapiens, UniProt Q9H8M2); thermal stability, DSF; 200 µM): 5.5 °C
